Experimental data collected from several papers.
Each numbered part is a random draw from the data of one study; scales do not carry over between parts. Changes are numbered by the printed parent chain.
Chain of UniProt Q86UE8 (whole entry, looked up): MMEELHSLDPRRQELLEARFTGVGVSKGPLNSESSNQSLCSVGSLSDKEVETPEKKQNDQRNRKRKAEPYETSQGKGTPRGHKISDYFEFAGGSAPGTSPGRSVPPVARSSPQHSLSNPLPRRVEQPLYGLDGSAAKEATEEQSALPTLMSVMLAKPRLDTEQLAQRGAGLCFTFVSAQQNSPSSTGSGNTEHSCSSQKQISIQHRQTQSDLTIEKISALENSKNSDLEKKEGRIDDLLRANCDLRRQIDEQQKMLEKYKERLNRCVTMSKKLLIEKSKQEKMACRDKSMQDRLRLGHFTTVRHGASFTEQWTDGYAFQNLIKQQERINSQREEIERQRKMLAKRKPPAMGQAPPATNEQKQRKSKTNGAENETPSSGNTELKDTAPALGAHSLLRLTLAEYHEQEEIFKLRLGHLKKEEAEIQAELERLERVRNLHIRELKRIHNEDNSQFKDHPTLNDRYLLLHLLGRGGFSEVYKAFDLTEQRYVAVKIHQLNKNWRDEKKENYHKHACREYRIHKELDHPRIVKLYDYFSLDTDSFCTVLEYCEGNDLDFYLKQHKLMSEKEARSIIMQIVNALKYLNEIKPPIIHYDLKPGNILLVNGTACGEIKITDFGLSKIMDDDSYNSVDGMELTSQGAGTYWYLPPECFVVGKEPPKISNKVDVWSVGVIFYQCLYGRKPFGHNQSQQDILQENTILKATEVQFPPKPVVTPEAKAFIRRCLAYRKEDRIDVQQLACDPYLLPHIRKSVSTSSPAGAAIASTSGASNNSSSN
Chain of UniProt P32298 (whole entry, looked up): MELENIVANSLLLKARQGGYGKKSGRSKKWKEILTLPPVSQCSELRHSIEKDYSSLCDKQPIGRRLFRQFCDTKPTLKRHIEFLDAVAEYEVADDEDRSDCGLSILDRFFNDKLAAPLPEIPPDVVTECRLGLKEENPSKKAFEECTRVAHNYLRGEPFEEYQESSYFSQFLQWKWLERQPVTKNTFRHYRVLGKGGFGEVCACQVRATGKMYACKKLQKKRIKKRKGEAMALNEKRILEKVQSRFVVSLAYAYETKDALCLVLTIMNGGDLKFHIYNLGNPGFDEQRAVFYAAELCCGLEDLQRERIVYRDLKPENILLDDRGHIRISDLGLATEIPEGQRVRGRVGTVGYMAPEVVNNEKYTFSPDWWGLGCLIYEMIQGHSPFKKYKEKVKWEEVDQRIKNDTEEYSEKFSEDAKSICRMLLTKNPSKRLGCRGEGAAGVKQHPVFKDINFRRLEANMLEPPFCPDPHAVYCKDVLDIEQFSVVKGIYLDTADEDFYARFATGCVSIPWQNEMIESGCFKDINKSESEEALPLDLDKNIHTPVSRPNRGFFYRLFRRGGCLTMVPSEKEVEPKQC
Chain of UniProt P35968 (whole entry, looked up): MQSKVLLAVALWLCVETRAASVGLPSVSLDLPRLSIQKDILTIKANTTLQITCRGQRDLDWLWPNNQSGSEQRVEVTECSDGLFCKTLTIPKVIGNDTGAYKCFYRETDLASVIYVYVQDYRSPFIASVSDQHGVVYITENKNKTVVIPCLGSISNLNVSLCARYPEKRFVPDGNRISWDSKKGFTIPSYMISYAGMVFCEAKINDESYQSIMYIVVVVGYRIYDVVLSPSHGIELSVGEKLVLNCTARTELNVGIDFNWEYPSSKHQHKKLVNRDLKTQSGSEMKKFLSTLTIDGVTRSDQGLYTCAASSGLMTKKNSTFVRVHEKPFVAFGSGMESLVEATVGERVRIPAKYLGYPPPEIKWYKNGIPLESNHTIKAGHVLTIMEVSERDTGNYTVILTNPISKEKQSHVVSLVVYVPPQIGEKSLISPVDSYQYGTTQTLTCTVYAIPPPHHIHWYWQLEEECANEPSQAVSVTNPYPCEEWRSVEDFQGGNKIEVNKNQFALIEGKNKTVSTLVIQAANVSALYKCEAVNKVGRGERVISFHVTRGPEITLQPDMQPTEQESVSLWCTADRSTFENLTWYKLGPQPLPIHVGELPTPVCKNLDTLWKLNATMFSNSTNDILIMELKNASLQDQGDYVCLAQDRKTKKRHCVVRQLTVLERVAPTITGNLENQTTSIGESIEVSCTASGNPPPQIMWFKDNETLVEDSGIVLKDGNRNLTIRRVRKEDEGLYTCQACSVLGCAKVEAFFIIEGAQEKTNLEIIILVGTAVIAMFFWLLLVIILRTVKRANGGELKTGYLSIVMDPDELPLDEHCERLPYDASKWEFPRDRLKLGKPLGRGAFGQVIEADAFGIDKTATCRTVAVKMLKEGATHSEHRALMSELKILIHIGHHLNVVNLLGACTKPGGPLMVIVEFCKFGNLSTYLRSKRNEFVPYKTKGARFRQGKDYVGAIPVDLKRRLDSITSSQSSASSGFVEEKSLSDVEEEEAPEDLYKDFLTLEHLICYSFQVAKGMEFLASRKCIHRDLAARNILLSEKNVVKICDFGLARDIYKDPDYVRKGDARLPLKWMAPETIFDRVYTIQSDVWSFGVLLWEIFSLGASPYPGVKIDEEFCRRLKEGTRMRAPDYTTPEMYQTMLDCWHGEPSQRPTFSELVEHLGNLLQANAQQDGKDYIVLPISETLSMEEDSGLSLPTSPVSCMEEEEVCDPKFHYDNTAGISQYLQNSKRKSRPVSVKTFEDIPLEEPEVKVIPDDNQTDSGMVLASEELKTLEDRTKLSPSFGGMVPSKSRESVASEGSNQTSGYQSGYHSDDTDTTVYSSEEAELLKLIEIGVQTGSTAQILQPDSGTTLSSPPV
Chain of UniProt P51451 (whole entry, looked up): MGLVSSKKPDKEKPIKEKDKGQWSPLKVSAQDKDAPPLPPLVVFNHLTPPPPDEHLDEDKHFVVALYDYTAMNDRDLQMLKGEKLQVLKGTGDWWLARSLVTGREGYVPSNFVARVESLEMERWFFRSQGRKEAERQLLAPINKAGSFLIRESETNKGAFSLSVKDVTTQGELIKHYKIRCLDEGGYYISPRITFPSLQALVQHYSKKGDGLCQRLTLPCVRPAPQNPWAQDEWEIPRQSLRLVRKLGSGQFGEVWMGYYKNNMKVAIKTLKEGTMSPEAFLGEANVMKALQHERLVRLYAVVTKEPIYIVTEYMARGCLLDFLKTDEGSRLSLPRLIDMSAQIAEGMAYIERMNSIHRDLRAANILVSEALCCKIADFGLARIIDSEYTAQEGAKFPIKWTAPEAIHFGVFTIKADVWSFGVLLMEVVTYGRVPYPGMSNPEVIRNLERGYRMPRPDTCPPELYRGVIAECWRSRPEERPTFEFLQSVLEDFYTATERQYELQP
Chain of UniProt Q6P2M8 (whole entry, looked up): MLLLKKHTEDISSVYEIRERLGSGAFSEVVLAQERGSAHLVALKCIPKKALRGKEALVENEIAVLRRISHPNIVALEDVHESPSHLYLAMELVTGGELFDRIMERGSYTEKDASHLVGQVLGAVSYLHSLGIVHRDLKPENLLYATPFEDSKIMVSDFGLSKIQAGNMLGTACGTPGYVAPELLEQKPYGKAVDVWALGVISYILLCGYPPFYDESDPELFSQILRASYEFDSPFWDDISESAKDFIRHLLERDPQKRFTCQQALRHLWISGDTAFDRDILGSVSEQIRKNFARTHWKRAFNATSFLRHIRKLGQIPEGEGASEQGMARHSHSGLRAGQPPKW
Chain of UniProt P21802 (whole entry, looked up): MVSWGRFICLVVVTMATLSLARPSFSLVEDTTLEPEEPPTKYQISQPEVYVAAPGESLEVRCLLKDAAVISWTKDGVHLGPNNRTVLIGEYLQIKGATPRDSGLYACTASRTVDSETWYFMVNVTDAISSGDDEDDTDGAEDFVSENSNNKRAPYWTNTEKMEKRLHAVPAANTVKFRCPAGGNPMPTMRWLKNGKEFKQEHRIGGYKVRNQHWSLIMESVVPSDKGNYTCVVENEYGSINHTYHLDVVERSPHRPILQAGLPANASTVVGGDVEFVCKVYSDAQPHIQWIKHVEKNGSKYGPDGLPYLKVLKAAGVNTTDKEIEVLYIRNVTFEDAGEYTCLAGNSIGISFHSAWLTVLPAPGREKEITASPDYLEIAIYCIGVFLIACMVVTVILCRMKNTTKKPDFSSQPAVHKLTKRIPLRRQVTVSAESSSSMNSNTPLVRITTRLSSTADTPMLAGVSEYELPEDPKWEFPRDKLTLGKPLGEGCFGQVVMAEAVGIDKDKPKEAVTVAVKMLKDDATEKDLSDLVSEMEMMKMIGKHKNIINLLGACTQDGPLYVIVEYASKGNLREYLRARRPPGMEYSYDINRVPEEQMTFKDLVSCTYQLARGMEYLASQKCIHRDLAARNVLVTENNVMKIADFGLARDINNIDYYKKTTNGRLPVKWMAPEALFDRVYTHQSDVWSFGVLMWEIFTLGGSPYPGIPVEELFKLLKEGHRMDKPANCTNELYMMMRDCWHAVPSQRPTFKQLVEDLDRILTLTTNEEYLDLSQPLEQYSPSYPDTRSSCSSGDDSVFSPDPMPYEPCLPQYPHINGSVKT
Chain of UniProt P50750 (whole entry, looked up): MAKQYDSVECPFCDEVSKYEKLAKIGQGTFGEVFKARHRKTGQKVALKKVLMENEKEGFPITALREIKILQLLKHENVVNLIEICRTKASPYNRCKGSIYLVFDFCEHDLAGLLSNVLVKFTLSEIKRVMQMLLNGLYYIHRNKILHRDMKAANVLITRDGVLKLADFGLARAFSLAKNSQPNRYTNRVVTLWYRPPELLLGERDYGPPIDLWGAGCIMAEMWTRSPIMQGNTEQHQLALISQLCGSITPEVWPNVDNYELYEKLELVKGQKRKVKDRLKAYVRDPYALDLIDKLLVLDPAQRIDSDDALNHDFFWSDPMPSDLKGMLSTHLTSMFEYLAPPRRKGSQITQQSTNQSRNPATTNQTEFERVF

Set 1 — concentration: 1 µM
SMILES: O=C(O)[C@@H]1[C@@H](Cn2nnc3ccccc3c2=O)CC[C@H]1C(=O)c1ccc(OCCC2CCOCC2)cc1
target | observed | method | remaining binding [%]
FGFR3 (Homo sapiens, UniProt P22607) | cell-free assay | competition with immobilised ligand | 100
PRKAA1 (Homo sapiens, UniProt Q13131) | cell-free assay | competition with immobilised ligand | 100
BLK (Homo sapiens, UniProt P51451) | cell-free assay | competition with immobilised ligand | 95
STK25 (Homo sapiens, UniProt O00506) | cell-free assay | competition with immobilised ligand | 87
PRKCH (Homo sapiens, UniProt P24723) | cell-free assay | competition with immobilised ligand | 100
TYRO3 (Homo sapiens, UniProt Q06418) | cell-free assay | competition with immobilised ligand | 100
Ribosomal protein S6 kinase alpha-1, N-terminal kinase domain (RPS6KA1, Homo sapiens, UniProt Q15418) | cell-free assay | competition with immobilised ligand | 100
TEK (Homo sapiens, UniProt Q02763) | cell-free assay | competition with immobilised ligand | 100
EGFR (Homo sapiens, UniProt P00533, del752-759) | cell-free assay | competition with immobilised ligand | 53
IGF1R (Homo sapiens, UniProt P08069) | cell-free assay | competition with immobilised ligand | 100
PRKCD (Homo sapiens, UniProt Q05655) | cell-free assay | competition with immobilised ligand | 100
ROS1 (Homo sapiens, UniProt P08922) | cell-free assay | competition with immobilised ligand | 95
MELK (Homo sapiens, UniProt Q14680) | cell-free assay | competition with immobilised ligand | 85
Tyrosine-protein kinase ABL1, phosphorylated (ABL1, Homo sapiens, UniProt P00519, F317I) | binding | – | 100
MET (Homo sapiens, UniProt P08581) | cell-free assay | competition with immobilised ligand | 100
FLT4 (Homo sapiens, UniProt P35916) | cell-free assay | competition with immobilised ligand | 100
FGFR2 (Homo sapiens, UniProt P21802) | cell-free assay | competition with immobilised ligand | 100
MAP2K3 (Homo sapiens, UniProt P46734) | cell-free assay | competition with immobilised ligand | 92
TLK2 (Homo sapiens, UniProt Q86UE8) | cell-free assay | competition with immobilised ligand | 93
CSNK1D (Homo sapiens, UniProt P48730) | cell-free assay | competition with immobilised ligand | 100
NEK1 (Homo sapiens, UniProt Q96PY6) | cell-free assay | competition with immobilised ligand | 100

Set 2 — target: ATF5, bZIP domain (human); method: DHFR protein complementation; sample: yeast; baseline: wild-type JUN-FOS pair; reading: higher = stronger binding
Notes: single substitutions, most at no-binding floor
Starting sequence: JUN, bZIP domain (human); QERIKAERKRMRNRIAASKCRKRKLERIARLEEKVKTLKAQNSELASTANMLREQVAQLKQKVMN; partner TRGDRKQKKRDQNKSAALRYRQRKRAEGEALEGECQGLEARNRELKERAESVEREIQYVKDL
Change | binding fitness
I28M | -1.56 natural log
S47G | -1.39 natural log
L45S | -1.44 natural log
M51Q | -1.46 natural log
E44N | -1.49 natural log
V56Q | -1.58 natural log
A40Y | -1.39 natural log
N42S | -1.53 natural log

Set 3 — Structure (SMILES): Nc1ncnc2n[nH]c(Nc3ccc(F)cc3)c12; observed: enzyme activity; mode: inhibitor; concentration: 0.5 µM; baseline: control
target | remaining activity [%]
MAP2K1 (Homo sapiens, UniProt Q02750) | 101
MINK1 (Homo sapiens, UniProt Q8N4C8) | 88.9
Cyclin-dependent kinase 9, with cyclin K (CDK9, Homo sapiens, UniProt P50750) | 92.4
MARK2 (Homo sapiens, UniProt Q7KZI7) | 87
GRK4 (Homo sapiens, UniProt P32298) | 98.8
KDR (Homo sapiens, UniProt P35968) | 104
PNCK (Homo sapiens, UniProt Q6P2M8) | 98.4
MARK4 (Homo sapiens, UniProt Q96L34) | 99.4
RPS6KA4 (Homo sapiens, UniProt O75676) | 114
TXK (Homo sapiens, UniProt P42681) | 67.6
Myosin-IIIb (MYO3B, Homo sapiens, UniProt Q8WXR4) | 87.9
TLK2 (Homo sapiens, UniProt Q86UE8) | 79

Set 4 — method: RNA Bind-n-Seq; form: RNA; sample: in vitro; concentration: 365 nM; baseline: no-protein control; reading: higher = stronger binding
Target: RNA binding protein fox-1 homolog 2, RRM domain, GST-SBP tag (RBFOX2, Homo sapiens, UniProt O43251-10, residues 100-194)
Notes: natural RNA segment, single round, ends assumed
Constant ends, left off below: GGGAGUUCUACAGUCCGACGAUC … UGGAAUUCUCGGGUGCCAA
Residues (chain): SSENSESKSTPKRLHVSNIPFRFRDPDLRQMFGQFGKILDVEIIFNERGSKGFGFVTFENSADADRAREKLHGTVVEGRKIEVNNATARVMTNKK
Sequence | RBNS enrichment (R)
GAAUGCUGUUCCAUUGUAUGGCUGUGUCAGAUUUUGUUUGUUCAUUCACCAGUUGAUAGACAUGUAGAUUGUUUUCAUGCUGCUGUGACCAUUUGUGUACAAGUGUUUGU | 0.424
UGAUUAUAUCUAUUAAGUGUGCAUUUAUAGUAUCUCCUAUGGAUCAAUUACAGAGCACAAUGACUGUCGUUGGAUAUAUAUGUAUAUGUAUAUGUAUAUUAUAUGUAUAU | 0.405
UAAAAAGUACAAAUUAAAAGAUUUGAGAAAGUGGUAUUUUUUUCUGAAAGCAAACAAUGGCUUGUAAAGUCAUUUGAAGAGACUUUCCAAUAUGAAUUCAAAAUUCCACU | 0.502
GCCAAUACACCCUACCUUGGACCUGUAUGAAACAAGGCUACCGACAUGUAUCCUUGCUCUCCAGAGAUGGCACUAGCCUCAAUCCAGCUUCCAUCUUUGUAUACACCUGC | 0.286
AUGUGUGGGGUUUCUAUUAGAAGAUAAUUUUGUUCUCAUUUUACCUUUUCUUUUAUGAUCCUUCUCUGCUAGAACAGGUUAAUUCUCCAAAUUUGUUUUGUUUUGUUUUG | 1.96
UCACACACUGGACACCAUCACCUCUUUGGAACUGCCAGACCCUGGGGGUCCCCAGUGAGCAAAGGUCUGUCCUUGUCCCUUUGUCUGUCUGUGAAUAAAUGUGAGUUCGU | 0.473
UUCUGUUCAGCUGGGGUAGAGUGAGGAUGAAAAGUCAGCCACCACUCUGUGGCAGGGUUGCUGGGUGGGAACAGGGAUUUUAUUUAGACUCAGCUAGAUCGUGUGAGAAG | 2.03
UGGGCGGCUGUGGCGUCAGGAUGGAGUCCUAGCUGUGACCUGUGCCCAGGAGGGCGUGAUCCGAGUGAAGCCCCAGGUCUCAGAGAGCAAGCUGUAGCCAGAGGUACCAG | 0.372

For quick reference, copied from above (set 1):
target | observed | method | remaining binding [%]
Tyrosine-protein kinase ABL1, phosphorylated (ABL1, Homo sapiens, UniProt P00519, F317I) | binding | – | 100
FLT4 (Homo sapiens, UniProt P35916) | cell-free assay | competition with immobilised ligand | 100
EGFR (Homo sapiens, UniProt P00533, del752-759) | cell-free assay | competition with immobilised ligand | 53
PRKCD (Homo sapiens, UniProt Q05655) | cell-free assay | competition with immobilised ligand | 100
